Experimental data collected from several papers.
Protocols differ between the studies behind these lines. Non-standard residues stand in square brackets, D forms with d. No end group written: not given here.

C[C@H](NC(=O)[C@H](Cc1c[nH]c2ccccc12)NC(=O)[C@H](CCCNC(=N)N)NC(=O)[C@H](Cc1c[nH]c2ccccc12)NC(=O)[C@H](CCC(N)=O)NC(=O)[C@H](Cc1c[nH]c2ccccc12)NC(=O)[C@@H](N)CCCNC(=N)N)C(=O)N[C@@H](Cc1c[nH]c2ccccc12)C(=O)N[C@@H](CCCNC(=N)N)C(N)=O has a retention time of 6.5 min (RP-HPLC C18; hydrophobicity measure).
CC(C)C[C@@H]1NC(=O)[C@H](CCCN)NC(=O)[C@H](C(C)C)NC(=O)[C@@H]2CCCN2C(=O)[C@@H](Cc2ccccc2)NC(=O)[C@H](CC(C)C)NC(=O)[C@H](CCCN)NC(=O)[C@H](C(C)C)NC(=O)[C@@H]2CCCN2C(=O)[C@@H](Cc2ccccc2)NC1=O has a retention time of 33.5 min (RP-HPLC C8; 70 °C, water/acetonitrile TFA gradient).
Under “retention time shift per fluorine”, `Trp-[Phe(4-F)] (Trp-4-fluoro-Phe; Phe(4-F) = N[C@@H](Cc1ccc(F)cc1)C(=O)O)` is recorded as 6.13 min (RP-HPLC C18; 25 °C; relative to: non-fluorinated analogue).
For CC(=O)N[C@H](CCCCN)C(=O)N[C@H](CC(C)C)C(=O)N[C@@H](CCN)C(=O)N[C@H](CO)C(=O)N[C@H](CC(C)C)C(=O)N[C@H](CC(C)C)C(=O)N[C@@H](CCN)C(=O)N[C@@H](C(=O)N[C@H](CC(C)C)C(=O)N[C@H](CO)C(=O)N[C@@H](CCN)C(=O)N[C@H](C)C(=O)N[C@H](CCCCN)C(=O)N[C@H](C)C(=O)N[C@H](C)C(=O)N[C@H](CCCCN)C(=O)N[C@H](CC(C)C)C(=O)N[C@@H](CCN)C(=O)N[C@@H](C(=O)N[C@H](CC(C)C)C(=O)N[C@H](CC(C)C)C(=O)N[C@@H](CCN)C(=O)N[C@H](C)C(=O)N[C@H](CC(C)C)C(=O)N[C@H](CO)C(=O)N[C@@H](CCN)C(N)=O)[C@H](C)O)[C@H](C)O, the retention time was 116 min (RP-HPLC C8; pH 2, 25 °C, hydrophobicity measure).
The retention time of C[C@H](NC(=O)[C@H](CCC(N)=O)NC(=O)[C@H](Cc1c[nH]c2ccccc12)NC(=O)[C@H](CCCNC(=N)N)NC(=O)[C@H](Cc1c[nH]c2ccccc12)NC(=O)[C@H](CCC(N)=O)NC(=O)[C@H](Cc1c[nH]c2ccccc12)NC(=O)[C@@H](N)CCCNC(=N)N)C(=O)N[C@@H](CCCNC(=N)N)C(N)=O is reported as 5.7 min (RP-HPLC C18; hydrophobicity measure).
CC(C)(C)O[C@H]([C@H](NC(=O)OCC1c2ccccc2-c2ccccc21)C(=O)O)C(F)(F)F: “retention time shift per fluorine” 7.37 min (RP-HPLC C18; 25 °C; relative to: non-fluorinated analogue).
N=C(N)NCCC[C@H](NC(=O)[C@H](Cc1c[nH]c2ccccc12)NC(=O)[C@H](CCC(N)=O)NC(=O)[C@H](Cc1c[nH]c2ccccc12)NC(=O)[C@H](CCCNC(=N)N)NC(=O)[C@H](Cc1c[nH]c2ccccc12)NC(=O)[C@H](CCC(N)=O)NC(=O)[C@H](Cc1c[nH]c2ccccc12)NC(=O)[C@@H](N)CCCN)C(N)=O has a retention time of 6.4 min (RP-HPLC, C18 column; water/acetonitrile gradient with TFA).
C[C@H](NC(=O)[C@H](Cc1c[nH]c2ccccc12)NC(=O)[C@H](CCC(N)=O)NC(=O)[C@H](Cc1c[nH]c2ccccc12)NC(=O)[C@@H](N)CCCNC(=N)N)C(=O)N[C@@H](Cc1c[nH]c2ccccc12)C(=O)N[C@@H](CCC(N)=O)C(=O)N[C@@H](Cc1c[nH]c2ccccc12)C(=O)N[C@@H](CCCNC(=N)N)C(N)=O gave a retention time of 6.7 min (RP-HPLC C18; hydrophobicity measure).
CC(=O)N[C@@H](Cc1ccc(-c2ccccc2)cc1)C(=O)N[C@@H](CCCCN)C(=O)N[C@@H](Cc1ccc(-c2ccccc2)cc1)C(=O)N[C@@H](CCC(=O)O)C(=O)N[C@@H](Cc1ccc(-c2ccccc2)cc1)C(=O)N[C@@H](CCCCN)C(=O)N[C@@H](Cc1ccc(-c2ccccc2)cc1)C(=O)N[C@@H](CCC(=O)O)C(N)=O has a retention time of 15 min (reverse-phase HPLC C18).
With N=C(N)NCCC[C@H](NC(=O)[C@H](Cc1c[nH]c2ccccc12)NC(=O)[C@H](CCC(N)=O)NC(=O)[C@H](Cc1c[nH]c2ccccc12)NC(=O)[C@H](CCCNC(=N)N)NC(=O)[C@H](Cc1c[nH]c2ccccc12)NC(=O)[C@H](CCC(N)=O)NC(=O)[C@H](Cc1c[nH]c2ccccc12)NC(=O)[C@@H](N)CCCNC(=N)N)C(N)=O the retention time was 6.4 min (RP-HPLC, C18 column; water/acetonitrile gradient with TFA).
For `Trp-Phe`, “retention time shift” read 6.13 min (RP-HPLC C18; relative to: non-fluorinated analogue).
With `RWQWRWQWR` the retention time was 5.8 min (RP-HPLC, C18 column; peptide; higher is more hydrophobic).
The retention time of CCCCCCCC(=O)NCCCC[C@H](NC(=O)CCCCCCC)C(=O)N[C@@H](CCCCN)C(=O)N[C@@H](CCCCN)C(=O)N[C@@H](CCCCN)C(=O)N[C@@H](CCCCN)C(=O)N[C@@H](CCCCN)C(N)=O is reported as 12.4 min (RP-HPLC C18).
With CC(=O)N[C@@H](Cc1ccc(-c2ccccc2)cc1)C(=O)N[C@@H](CCCCN)C(=O)N[C@@H](Cc1ccccc1)C(=O)N[C@@H](CCC(=O)O)C(=O)N[C@@H](Cc1ccccc1)C(=O)N[C@@H](CCCCN)C(=O)N[C@@H](Cc1ccccc1)C(=O)N[C@@H](CCC(=O)O)C(N)=O the retention time was 13.2 min (reverse-phase HPLC C18).
For C[C@H](OC(C)(C)C)[C@H](NC(=O)OCC1c2ccccc2-c2ccccc21)C(=O)O, “retention time shift per fluorine” read 7.37 min (RP-HPLC C18; 25 °C; relative to: non-fluorinated analogue).
With NC(=O)CC[C@H](NC(=O)[C@H](CCC(N)=O)NC(=O)[C@H](CC(N)=O)NC(=O)[C@@H](N)CC(N)=O)C(=O)N[C@@H](CC(N)=O)C(=O)N[C@@H](Cc1ccc(O)cc1)C(=O)O the retention time was roughly 10 min (analytical RP-HPLC; C18 column).

Repeated from above:
For CC(=O)N[C@H](CCCCN)C(=O)N[C@H](CC(C)C)C(=O)N[C@@H](CCN)C(=O)N[C@H](CO)C(=O)N[C@H](CC(C)C)C(=O)N[C@H](CC(C)C)C(=O)N[C@@H](CCN)C(=O)N[C@@H](C(=O)N[C@H](CC(C)C)C(=O)N[C@H](CO)C(=O)N[C@@H](CCN)C(=O)N[C@H](C)C(=O)N[C@H](CCCCN)C(=O)N[C@H](C)C(=O)N[C@H](C)C(=O)N[C@H](CCCCN)C(=O)N[C@H](CC(C)C)C(=O)N[C@@H](CCN)C(=O)N[C@@H](C(=O)N[C@H](CC(C)C)C(=O)N[C@H](CC(C)C)C(=O)N[C@@H](CCN)C(=O)N[C@H](C)C(=O)N[C@H](CC(C)C)C(=O)N[C@H](CO)C(=O)N[C@@H](CCN)C(N)=O)[C@H](C)O)[C@H](C)O, the retention time was 116 min (RP-HPLC C8; pH 2, 25 °C, hydrophobicity measure).
